Measurements pooled from the literature.
Each line is one published result; not all experiments were run side by side. ± gives the spread as reported.
Target: D(1A) dopamine receptor (DRD1, Homo sapiens, UniProt P21728)
UniProt P21728, sequence (whole entry, looked up): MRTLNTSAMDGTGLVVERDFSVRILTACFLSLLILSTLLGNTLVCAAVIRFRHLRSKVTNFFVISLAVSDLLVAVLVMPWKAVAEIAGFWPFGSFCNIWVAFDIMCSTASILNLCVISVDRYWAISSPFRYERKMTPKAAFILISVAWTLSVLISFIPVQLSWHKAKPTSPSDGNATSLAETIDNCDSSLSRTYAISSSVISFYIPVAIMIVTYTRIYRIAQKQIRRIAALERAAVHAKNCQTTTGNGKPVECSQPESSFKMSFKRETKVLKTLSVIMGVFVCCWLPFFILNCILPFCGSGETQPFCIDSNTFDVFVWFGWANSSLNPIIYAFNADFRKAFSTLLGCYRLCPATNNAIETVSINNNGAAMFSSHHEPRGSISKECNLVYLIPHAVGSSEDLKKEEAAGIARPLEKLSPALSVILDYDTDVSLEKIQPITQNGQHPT

`O=C(CN1CCO[C@H](COc2ccccc2)C1)N1CCc2ccccc21` gave an inhibition of 21.3% (radioligand binding; concentration not given, with: [3H]SCH23390).
The inhibition of `COc1cc(Cl)c(C(=O)N[C@@H](CN[C@H]2CC[C@@H](N)CC2)Cc2ccc(C#N)cc2)cc1-c1ccc(CN[C@H](C)c2ccc(C)cc2)o1` is reported as -13% (agonist response, antagonist; human cells; 10 µM, D1 antagonist).
`OCCCN1CC[C@@H]2C[C@H]1c1cc(-c3ccc(C(F)(F)F)cc3)ccc12` has an inhibition of less than 50% (radioligand binding, PDSP competition binding; 10 µM).
`Oc1cc2c(cc1OCC(F)F)CCN1Cc3c(c(Br)cc(O)c3OCC(F)F)C[C@@H]21` gave an inhibition of 94 ± 1% (cAMP level, antagonist, TR-FRET; U2OS expressing human D1R; concentration not given, with: dopamine 10 nM).
For `COc1cccc(OC[C@@H]2CN(CCN3CCc4ccccc43)CCO2)c1`, the inhibition was 48.7% (radioligand binding; concentration not given, with: [3H]SCH23390).
The inhibition of `CCS(=O)(=O)c1nc(S(=O)(=O)c2ccccc2Cl)c(N2CCN(C)C(=O)[C@H]2C)s1` is reported as 0.87% (10 µM).
`CCCOc1cc2c(cc1O)[C@@H]1Cc3c(Br)cc(O)c(OCC(F)F)c3CN1CC2` has an inhibition of 89 ± 1% (cAMP level, antagonist, TR-FRET; U2OS expressing human D1R; concentration not given, with: dopamine 10 nM).
With `O=C(NO)c1ccc(CN2CCCCc3ccccc32)c(F)c1` the inhibition was 26.4% (radioligand binding, radioligand displacement; 10 µM, mean of replicates).
With `Clc1cccc(OC[C@H]2CN(CCN3CCc4ccccc43)CCO2)c1` the inhibition was 31% (radioligand binding; concentration not given, with: [3H]SCH23390).
`CN(C(=O)n1cnc(-c2ccc[n+]([O-])c2)c1)C1CCCCC1` gave an inhibition of 21.3% (10 µM).
`CCCOc1c(O)cc(Br)c2c1CN1CCc3cc(OCC(F)F)c(O)cc3[C@@H]1C2` has an inhibition of 96 ± 1% (cAMP level, antagonist, TR-FRET; U2OS expressing human D1R; concentration not given, with: dopamine 10 nM).

Some of these lines once more:
`OCCCN1CC[C@@H]2C[C@H]1c1cc(-c3ccc(C(F)(F)F)cc3)ccc12` has an inhibition of less than 50% (radioligand binding, PDSP competition binding; 10 µM).
